Measurements gathered from unrelated publications.
“And” joins repeats or separate records; there may be more than shown. ± marks the error that the study gave.
T1: riboswitch RNA yjdF aptamer (Bacillus subtilis); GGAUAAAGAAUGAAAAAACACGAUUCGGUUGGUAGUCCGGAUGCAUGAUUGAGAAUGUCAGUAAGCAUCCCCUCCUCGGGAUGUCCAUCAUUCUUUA
Sequence of UniProt P51575 (whole entry, unmodified, looked up): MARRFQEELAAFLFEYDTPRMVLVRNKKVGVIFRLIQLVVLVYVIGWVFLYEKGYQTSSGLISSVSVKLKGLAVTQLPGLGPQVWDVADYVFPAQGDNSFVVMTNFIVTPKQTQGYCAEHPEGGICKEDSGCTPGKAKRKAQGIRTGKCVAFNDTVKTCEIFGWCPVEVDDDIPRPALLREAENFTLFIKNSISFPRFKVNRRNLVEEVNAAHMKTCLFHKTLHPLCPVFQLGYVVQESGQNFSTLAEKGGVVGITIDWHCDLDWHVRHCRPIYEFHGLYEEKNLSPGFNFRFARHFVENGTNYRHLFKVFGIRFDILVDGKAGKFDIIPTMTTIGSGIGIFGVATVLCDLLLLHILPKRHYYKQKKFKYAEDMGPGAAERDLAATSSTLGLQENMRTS
Sequence of UniProt P49773 (whole entry, looked up): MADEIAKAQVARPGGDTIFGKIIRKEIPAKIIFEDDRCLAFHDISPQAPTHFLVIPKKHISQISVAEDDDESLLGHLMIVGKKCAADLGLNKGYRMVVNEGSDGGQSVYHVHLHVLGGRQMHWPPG
Sequence of UniProt P11388 (whole entry, looked up): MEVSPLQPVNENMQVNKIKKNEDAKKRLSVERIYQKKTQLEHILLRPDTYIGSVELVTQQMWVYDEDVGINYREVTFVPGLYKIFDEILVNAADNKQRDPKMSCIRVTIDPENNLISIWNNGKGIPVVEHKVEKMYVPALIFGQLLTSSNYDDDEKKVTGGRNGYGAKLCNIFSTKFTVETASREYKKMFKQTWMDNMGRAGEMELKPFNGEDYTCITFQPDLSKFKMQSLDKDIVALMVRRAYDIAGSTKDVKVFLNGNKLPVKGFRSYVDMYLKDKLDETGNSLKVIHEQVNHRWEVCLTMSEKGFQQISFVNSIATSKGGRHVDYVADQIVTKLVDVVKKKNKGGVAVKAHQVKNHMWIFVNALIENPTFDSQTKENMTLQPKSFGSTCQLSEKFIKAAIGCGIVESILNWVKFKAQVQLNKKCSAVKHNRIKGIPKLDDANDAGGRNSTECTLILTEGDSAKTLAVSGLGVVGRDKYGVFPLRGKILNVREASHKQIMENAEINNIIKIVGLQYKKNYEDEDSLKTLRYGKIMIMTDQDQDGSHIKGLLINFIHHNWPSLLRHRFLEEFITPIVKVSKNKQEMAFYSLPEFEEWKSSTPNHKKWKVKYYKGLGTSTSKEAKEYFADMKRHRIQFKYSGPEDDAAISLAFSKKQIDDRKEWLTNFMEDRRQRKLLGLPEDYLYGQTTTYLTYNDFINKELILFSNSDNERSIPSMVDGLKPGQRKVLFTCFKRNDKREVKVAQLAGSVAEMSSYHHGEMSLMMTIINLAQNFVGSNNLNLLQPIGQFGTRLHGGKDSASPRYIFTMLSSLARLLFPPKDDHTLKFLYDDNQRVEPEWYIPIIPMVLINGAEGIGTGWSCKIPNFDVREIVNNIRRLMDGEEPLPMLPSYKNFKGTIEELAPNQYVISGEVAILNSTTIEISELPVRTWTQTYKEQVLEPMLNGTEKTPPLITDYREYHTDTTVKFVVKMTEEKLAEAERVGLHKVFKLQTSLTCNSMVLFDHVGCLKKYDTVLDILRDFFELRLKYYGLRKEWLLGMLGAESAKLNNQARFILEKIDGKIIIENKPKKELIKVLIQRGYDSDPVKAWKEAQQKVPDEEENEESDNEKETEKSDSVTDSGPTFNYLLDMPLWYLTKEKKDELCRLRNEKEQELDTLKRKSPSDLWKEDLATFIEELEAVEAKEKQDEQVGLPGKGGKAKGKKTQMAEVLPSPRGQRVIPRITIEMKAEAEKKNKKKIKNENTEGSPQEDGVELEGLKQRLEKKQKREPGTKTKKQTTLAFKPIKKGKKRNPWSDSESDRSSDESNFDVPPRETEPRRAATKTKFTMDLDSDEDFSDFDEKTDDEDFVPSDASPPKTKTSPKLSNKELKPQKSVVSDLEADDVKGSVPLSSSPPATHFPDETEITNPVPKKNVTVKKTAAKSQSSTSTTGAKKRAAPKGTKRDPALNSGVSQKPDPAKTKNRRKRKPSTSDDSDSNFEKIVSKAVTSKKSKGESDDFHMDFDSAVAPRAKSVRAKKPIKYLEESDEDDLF
Sequence of UniProt Q15349 (whole entry, unmodified, looked up): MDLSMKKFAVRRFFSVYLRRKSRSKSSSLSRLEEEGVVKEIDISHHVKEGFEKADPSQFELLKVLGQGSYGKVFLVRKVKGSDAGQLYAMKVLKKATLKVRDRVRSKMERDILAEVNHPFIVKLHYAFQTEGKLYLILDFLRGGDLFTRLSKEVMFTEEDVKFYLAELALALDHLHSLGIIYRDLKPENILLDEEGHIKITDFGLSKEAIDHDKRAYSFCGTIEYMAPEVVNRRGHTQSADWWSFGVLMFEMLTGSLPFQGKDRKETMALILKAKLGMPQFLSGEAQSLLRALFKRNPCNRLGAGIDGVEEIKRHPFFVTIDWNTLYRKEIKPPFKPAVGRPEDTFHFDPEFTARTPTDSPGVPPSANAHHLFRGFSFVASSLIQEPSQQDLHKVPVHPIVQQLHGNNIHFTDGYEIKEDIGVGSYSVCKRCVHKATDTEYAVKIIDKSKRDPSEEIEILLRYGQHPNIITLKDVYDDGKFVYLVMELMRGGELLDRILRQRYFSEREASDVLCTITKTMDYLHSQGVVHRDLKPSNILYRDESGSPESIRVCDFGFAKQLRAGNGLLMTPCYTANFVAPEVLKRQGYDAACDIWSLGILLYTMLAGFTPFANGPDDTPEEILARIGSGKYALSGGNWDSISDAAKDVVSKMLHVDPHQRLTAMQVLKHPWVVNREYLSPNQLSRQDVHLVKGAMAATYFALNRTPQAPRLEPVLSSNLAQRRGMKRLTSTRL
Sequence of UniProt P0AC13 (whole entry, looked up): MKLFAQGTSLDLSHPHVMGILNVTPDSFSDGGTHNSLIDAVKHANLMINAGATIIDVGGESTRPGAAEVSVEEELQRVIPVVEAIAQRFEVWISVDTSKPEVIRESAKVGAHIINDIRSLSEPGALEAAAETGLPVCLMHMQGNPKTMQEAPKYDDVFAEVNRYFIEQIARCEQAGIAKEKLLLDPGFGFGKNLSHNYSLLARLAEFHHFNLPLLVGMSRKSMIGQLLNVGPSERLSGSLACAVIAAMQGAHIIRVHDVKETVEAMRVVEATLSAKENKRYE
Sequence of UniProt Q01105 (whole entry, unmodified, looked up): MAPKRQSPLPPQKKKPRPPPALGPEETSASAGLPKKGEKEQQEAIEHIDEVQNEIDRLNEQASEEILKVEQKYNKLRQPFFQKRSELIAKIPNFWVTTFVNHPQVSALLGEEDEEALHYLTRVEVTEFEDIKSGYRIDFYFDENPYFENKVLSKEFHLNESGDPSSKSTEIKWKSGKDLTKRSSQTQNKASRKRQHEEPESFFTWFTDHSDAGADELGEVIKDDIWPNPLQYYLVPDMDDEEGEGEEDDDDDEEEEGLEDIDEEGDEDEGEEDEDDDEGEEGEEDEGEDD
Sequence of UniProt P00519 (whole entry, unmodified, looked up): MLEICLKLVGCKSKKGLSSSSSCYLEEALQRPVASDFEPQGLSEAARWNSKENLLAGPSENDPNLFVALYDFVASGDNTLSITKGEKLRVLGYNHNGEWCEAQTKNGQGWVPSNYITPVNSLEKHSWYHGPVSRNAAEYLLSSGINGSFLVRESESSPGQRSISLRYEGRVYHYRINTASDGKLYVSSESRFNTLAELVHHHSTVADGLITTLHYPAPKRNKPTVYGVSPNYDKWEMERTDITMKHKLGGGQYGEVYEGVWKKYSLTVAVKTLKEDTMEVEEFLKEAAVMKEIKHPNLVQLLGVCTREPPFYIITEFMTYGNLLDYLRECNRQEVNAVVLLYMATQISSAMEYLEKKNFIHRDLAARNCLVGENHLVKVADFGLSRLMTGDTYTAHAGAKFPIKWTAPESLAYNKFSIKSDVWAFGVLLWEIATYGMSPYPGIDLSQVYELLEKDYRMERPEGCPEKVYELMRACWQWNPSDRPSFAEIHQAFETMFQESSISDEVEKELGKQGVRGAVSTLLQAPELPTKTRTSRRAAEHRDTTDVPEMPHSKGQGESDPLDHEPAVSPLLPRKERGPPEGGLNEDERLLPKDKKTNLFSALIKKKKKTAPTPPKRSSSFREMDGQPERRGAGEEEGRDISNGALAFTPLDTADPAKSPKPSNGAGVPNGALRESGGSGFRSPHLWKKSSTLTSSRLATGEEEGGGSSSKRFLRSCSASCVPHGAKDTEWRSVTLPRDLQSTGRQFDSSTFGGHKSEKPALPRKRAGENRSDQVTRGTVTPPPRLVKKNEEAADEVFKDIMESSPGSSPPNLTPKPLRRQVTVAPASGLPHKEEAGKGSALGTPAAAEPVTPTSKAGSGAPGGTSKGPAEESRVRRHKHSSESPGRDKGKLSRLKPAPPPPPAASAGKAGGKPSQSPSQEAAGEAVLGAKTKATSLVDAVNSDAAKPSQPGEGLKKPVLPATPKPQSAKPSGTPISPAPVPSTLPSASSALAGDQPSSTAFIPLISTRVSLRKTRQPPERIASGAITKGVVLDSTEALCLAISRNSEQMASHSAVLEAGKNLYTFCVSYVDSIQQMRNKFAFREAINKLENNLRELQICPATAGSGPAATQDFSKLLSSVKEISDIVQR
Sequence of UniProt P41587 (whole entry, looked up): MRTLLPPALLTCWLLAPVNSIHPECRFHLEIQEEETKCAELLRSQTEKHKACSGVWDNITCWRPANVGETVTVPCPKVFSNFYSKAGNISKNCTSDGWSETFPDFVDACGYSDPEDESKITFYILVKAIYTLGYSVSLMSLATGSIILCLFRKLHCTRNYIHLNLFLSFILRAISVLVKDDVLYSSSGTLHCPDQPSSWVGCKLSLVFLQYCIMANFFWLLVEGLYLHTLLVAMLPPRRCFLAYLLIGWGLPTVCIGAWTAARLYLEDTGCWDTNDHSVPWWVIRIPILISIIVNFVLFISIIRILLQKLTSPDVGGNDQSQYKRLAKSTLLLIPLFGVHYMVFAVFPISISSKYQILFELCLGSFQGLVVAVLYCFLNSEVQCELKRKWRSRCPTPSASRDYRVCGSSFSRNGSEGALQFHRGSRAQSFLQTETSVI

Structure (SMILES) | target | assay | test system | conditions | how to read | quantity | value
Nc1ncnc2c1ncn2[C@@H]1O[C@H](COP(=O)(O)CP(=O)(O)OP(=O)(O)O)[C@@H](O)[C@H]1O | P2X purinoceptor 1 (P2RX1, Homo sapiens, UniProt P51575, K215A) | calcium influx | – | 3.16 µM | reference: ionomycin response | calcium influx | 86.3% and 80.6% and 88.7%
Cc1cc2nc3[nH]c(=O)[nH]c(=O)c3nc2cc1C | T1, riboswitch RNA yjdF aptamer (Bacillus subtilis) | fluorescence titration | – | added: 380 nM lumichrome | – | Kd | 6 nM
NC/C(=C\F)COc1cccc(Cn2c(=S)[nH]c(=O)c3[nH]cnc32)c1 | Myeloperoxidase (MPO, Homo sapiens, UniProt P05164) | H2O2 consumption, inhibitor, H2O2 electrode | – | 0.028 µM, 0.3 s | – | H2O2 concentration | -0.176 µM
CC[C@H](C)[C@H](NC(=O)[C@H](CO)NC(=O)[C@H](CCCCN)NC(=O)[C@H](Cc1ccccc1)NC(=O)[C@@H](NC(=O)[C@H](CCC(=O)O)NC(=O)[C@H](Cc1ccc(O)cc1)NC(=O)[C@@H](NC(=O)[C@H](CCCNC(=N)N)NC(=O)[C@H](CCCCN)NC(=O)[C@H](CCCNC(=N)N)NC(=O)[C@H](CCCCN)NC(=O)[C@H](CCC(=O)O)NC(=O)[C@H](CCC(=O)O)NC(=O)[C@@H](NC(=O)[C@H](CCCNC(=N)N)NC(=O)[C@H](Cc1c[nH]cn1)NC(=O)[C@H](CCCNC(=N)N)NC(=O)[C@H](CC(=O)O)NC(=O)[C@H](CC(=O)O)NC(=O)[C@@H](NC(=O)[C@H](CC(=O)O)NC(=O)[C@@H]1CCCN1C(=O)[C@@H](N)CC(C)C)[C@@H](C)O)[C@@H](C)CC)[C@@H](C)O)[C@@H](C)O)C(=O)N[C@@H](C)C(=O)N[C@@H](CCCCN)C(=O)N[C@@H](CCCCN)C(=O)N[C@@H](CO)C(=O)N1CCC[C@H]1C(=O)N[C@@H](Cc1ccccc1)C(=O)N[C@@H](CC(N)=O)C(=O)NCC(=O)N1CCC[C@H]1C(=O)O | NF-kappa-B inhibitor alpha (Homo sapiens, UniProt P25963) | binding, ITC | – | pH 7.5, 293 K, 50 mM NaCl | – | ΔG | -8.1 ± 0.1 kcal/mol
Cn1c2c(c3ccc(Cl)c(Cl)c31)C(C#N)C(C)(C)NC2=O (stereo not drawn) | RPS6KA2 (Homo sapiens, UniProt Q15349) | thermal shift | – | 10 µM, 2 µM protein | higher = stronger binding | ΔTm | 1 °C
CN1CCN(c2cc(-c3ccncc3)c(-c3ccc4ccccc4c3)nn2)CC1 | VIPR2 (Homo sapiens, UniProt P41587) | agonist, FLIPR | – | 12.5 µM | – | activation | 0.6%
CC(=O)OCc1nn(C)c2nc(N)[nH]c(=O)c2c1=O | folP (Bacteria, UniProt P0AC13) | CETSA HiBiT | Escherichia coli, cell lysate | concentration not given | reference: DMSO | melting temperature shift | 15.1 °C
c1cnn2ncc(-c3ccnc(N4CCC45COC5)n3)c2c1 | ABL1 (Homo sapiens, UniProt P00519, Q252H) | KINOMEscan | – | 1 µM | reference: control | remaining binding | 61%
CCCCCCCCCCCCC/C=C/[C@@H](O)[C@H](CO)NC(=O)CCCCCCCCCCCCCCCCCCC | Protein SET (SET, Homo sapiens, UniProt Q01105, Y135C) | lipid binding, GFP pull-down LC-MS/MS | A549 overexpressing GFP-tagged protein | – | reference: eluate plus flow-through | lipid fraction bound | 39.8%
CC[C@@H]1[C@H](F)C(=O)N[C@@H]1COc1nccc2cc(C(N)=O)c(OC)cc12 | TLK1 (Homo sapiens, UniProt Q9UKI8) | ATP-site probe binding, ActivX profiling | THP-1 cell lysate | 0.2 mM, Lys2 site | – | inhibition | 9.2%
O=C1C[C@@H](c2ccccc2)Oc2cc(O)cc(O)c21 | Aryl hydrocarbon receptor (Danio rerio, UniProt Q9YGV3) | reporter gene, agonist, luciferase reporter | ZF-4 | 1.524 µM | reference: vehicle control | fold change | 0.767
O=c1nc(SCc2cc(F)cc(C(F)(F)F)c2)nc(SCc2ccc3nc(Cl)ccc3c2)[nH]1 | TOP2A (Homo sapiens, UniProt P11388) | ATPase activity | – | 125 µM, added: ATP 0.025 mM | – | ATP hydrolysis rate | 0.197 µM/min and 0.363 µM/min
OO | Histone acetyltransferase p300, BHC core (EP300, Homo sapiens, UniProt Q09472) | enzyme activity, inhibitor | – | 62.5 µM, p300, no DTT, added: [3H]acetyl-CoA | – | inhibition | 13 ± 8%
COc1cc(Nc2ncc3c(n2)-c2ccc(Cl)cc2C(c2c(F)cccc2OC)=NC3)ccc1C(=O)O | INSRR | kinase activity | – | 1 µM | – | remaining activity | 109%
O=C(COP(=O)(O)O)[C@@H](O)[C@H](O)[C@H](O)COP(=O)(O)O | HINT1 (Homo sapiens, UniProt P49773) | thermal proteome profiling | HepG2 cell lysate | concentration not given, 57 over 37 °C | reference: compound over control | thermal stability ratio | 0.49 and 0.985 and 0.694

A few entries again:
Structure (SMILES) | target | assay | test system | conditions | how to read | quantity | value
O=C(COP(=O)(O)O)[C@@H](O)[C@H](O)[C@H](O)COP(=O)(O)O | HINT1 (Homo sapiens, UniProt P49773) | thermal proteome profiling | HepG2 cell lysate | concentration not given, 57 over 37 °C | reference: compound over control | thermal stability ratio | 0.49 and 0.985 and 0.694
